Literature values as cited in several papers.
Compare with care: the assays were run in different laboratories. ± gives the spread as reported. In brackets after ≈: the same amount, converted by molar mass.
Sequence of UniProt Q9BYP7 (whole entry, looked up): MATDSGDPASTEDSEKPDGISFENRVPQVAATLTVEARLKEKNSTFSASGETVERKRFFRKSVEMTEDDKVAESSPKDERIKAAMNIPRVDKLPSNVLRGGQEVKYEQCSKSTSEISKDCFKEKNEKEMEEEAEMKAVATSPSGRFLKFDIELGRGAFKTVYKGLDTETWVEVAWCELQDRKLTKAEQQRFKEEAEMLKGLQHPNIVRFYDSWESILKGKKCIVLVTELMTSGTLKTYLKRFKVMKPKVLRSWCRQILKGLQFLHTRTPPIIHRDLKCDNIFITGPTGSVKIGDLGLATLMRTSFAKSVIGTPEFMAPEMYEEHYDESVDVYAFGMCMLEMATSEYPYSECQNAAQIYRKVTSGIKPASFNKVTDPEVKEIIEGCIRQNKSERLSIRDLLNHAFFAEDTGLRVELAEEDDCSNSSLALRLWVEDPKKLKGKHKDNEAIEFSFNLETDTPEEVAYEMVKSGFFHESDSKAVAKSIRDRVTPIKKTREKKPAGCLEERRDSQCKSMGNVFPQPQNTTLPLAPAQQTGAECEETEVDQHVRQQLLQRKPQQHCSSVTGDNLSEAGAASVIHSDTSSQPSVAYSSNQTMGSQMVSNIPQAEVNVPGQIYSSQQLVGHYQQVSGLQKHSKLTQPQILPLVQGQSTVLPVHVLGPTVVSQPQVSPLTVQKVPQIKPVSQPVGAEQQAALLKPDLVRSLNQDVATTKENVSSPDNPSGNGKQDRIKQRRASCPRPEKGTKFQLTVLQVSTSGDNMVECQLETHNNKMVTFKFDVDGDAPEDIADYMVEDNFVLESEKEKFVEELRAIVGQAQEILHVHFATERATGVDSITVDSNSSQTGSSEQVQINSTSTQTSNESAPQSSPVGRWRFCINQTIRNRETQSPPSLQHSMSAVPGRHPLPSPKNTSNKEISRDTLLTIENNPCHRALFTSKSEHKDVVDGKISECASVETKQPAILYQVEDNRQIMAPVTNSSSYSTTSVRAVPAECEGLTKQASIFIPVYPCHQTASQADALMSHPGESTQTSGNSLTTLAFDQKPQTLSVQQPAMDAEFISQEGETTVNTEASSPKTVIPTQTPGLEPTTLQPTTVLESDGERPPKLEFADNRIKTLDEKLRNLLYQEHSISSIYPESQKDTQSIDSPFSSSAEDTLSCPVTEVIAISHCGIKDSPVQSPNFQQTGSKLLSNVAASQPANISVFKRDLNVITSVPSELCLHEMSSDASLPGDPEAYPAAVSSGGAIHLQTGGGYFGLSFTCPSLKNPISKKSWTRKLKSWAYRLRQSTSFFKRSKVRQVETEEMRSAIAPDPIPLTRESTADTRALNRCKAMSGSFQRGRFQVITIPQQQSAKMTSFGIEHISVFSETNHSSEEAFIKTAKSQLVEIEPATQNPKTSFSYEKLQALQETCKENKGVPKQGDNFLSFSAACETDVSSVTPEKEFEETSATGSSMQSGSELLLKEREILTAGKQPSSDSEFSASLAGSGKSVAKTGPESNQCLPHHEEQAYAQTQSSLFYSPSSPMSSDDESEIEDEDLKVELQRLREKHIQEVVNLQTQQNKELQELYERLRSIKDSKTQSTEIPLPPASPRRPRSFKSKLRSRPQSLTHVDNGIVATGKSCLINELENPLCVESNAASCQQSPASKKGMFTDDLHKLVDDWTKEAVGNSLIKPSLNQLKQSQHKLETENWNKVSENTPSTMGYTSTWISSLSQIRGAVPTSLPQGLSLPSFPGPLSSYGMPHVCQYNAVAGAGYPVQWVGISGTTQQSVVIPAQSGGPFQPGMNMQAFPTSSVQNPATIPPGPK

Cc1c(O)cccc1C(=O)N[C@@H](CSc1ccccc1)[C@H](O)CN1C[C@H]2CCCC[C@H]2C[C@H]1C(=O)NC(C)(C)C  Cmax (plasma; concentration not given, total, steady state): 5 µM
Nc1nc2c(ncn2COCCO)c(=O)[nH]1  oral bioavailability (human): 20%
Nc1cccc2c1C(=O)N(C1CCC(=O)NC1=O)C2=O (centres unmarked)  incidence of grade 3 anemia (relapsed refractory multiple myeloma patients; dose not given, grade up to 4): 17%
CC(C)NC(=O)COc1cccc(-c2nc(Nc3ccc4[nH]ncc4c3)c3ccccc3n2)c1  tmax delay (human; with food): 0.5 h
CNCc1cc(-c2ccccc2F)n(S(=O)(=O)c2cccnc2)c1  Ctrough (human, plasma; 30 mg multiple dose, observed clinical data): 3.65 ng/mL
Cc1cc(-c2ncc(CC(=O)Nc3ccc(-c4cnccn4)cn3)cc2C)ccn1  incidence of nausea and vomiting (human, advanced cancer; dose not given, phase I trial; baseline: subjects): 25 to 30%
Nc1cc(C(F)(F)F)c(-c2nc(N3CCOCC3)nc(N3CCOCC3)n2)cn1  remaining activity (WNK3 (Homo sapiens, UniProt Q9BYP7); enzyme activity; 10 µM; baseline: untreated): 100%
CC(C)(C)c1cc(C(C)(C)C)c(NC(=O)c2c[nH]c3ccccc3c2=O)cc1O  blood-to-plasma ratio (human): 0.55
CCCCC[C@H](O)CC[C@@H]1[C@H]2Cc3cccc(OCC(=O)O)c3C[C@H]2C[C@H]1O  AUC(0-inf) (non-Japanese healthy adults; 18 µg): 0.26 ± 0.08 ng·h/mL
Cc1cn([C@@H]2C[C@@H](O)[C@H](CO)O2)c(=O)[nH]c1=O  oral bioavailability (mouse): 82%
Nc1ccn([C@@H]2O[C@H](CO)[C@@H](O)C2(F)F)c(=O)n1  grade 3 or higher weakness (metastatic pancreatic cancer patients; dose not given): 7%
C#C[C@]1(O)CC[C@H]2[C@@H]3CCC4=CC(=NO)CC[C@@H]4[C@H]3CC[C@@]21CC (mixture of isomers)  AUC(0-24 h), geometric mean (human, fed; 0.215 mg norgestimate, after 7 days dosing): 19.2 ng·h/mL
CC(C)n1c(Nc2cccnc2)nc2cnc(Nc3ccc(N4CCN(C)CC4)cc3)nc21  accumulation ratio of AUC (human relapsed or refractory AML; 20 to 310 mg/day, multiple doses): 0.8
CNC(C)C1CCC(N)C(OC2C(N)CC(N)C(OC3OCC(C)(O)C(NC)C3O)C2O)O1 (centres unmarked)  MIC (Escherichia coli; clinical isolate RKI-No_602/16): ≤ 0.5 µg/mL
C#Cc1cccc(Nc2ncnc3cc4c(cc23)OCCOCCOCCO4)c1  solubility (water): < 1000 µg/mL
C[Si](C)(C)O[Si](C)(C)O[Si](C)(C)O[Si](C)(C)C  log KAW (vapour pressure over solubility; 25 °C): 3.04
Cc1ccc(Nc2c(F)cccc2Cl)c(CC(=O)O)c1  solubility (water): < 1000 µg/mL
Cc1ccc(NC(=O)c2ccc(CN3CCN(C)CC3)cc2)cc1Nc1nccc(-c2cncc(-c3oncc3C)c2)n1  AUC(0-inf) (mouse; 50 mg/kg/day, steady state): 19600 ng·h/mL
C[C@]1(c2nc3c(C(N)=O)cccc3[nH]2)CCCN1  unchanged drug in urine (patients with cancer; oral, 50 mg; baseline: dose): 70%
C[C@@H](Oc1cc(-c2cnn(C3CCNCC3)c2)cnc1N)c1c(Cl)ccc(F)c1Cl  adverse event incidence (item: diarrhea; treatment-naive ALK-positive NSCLC patients; dose not given, monotherapy trial): 61%
CCN1CCN(Cc2ccc(Nc3ncc(F)c(-c4cc(F)c5nc(C)n(C(C)C)c5c4)n3)nc2)CC1  Tmax (human; 150 mg, single dose, tablet): 5.95 h
COc1ccc2[nH]cc(CCNC(C)=O)c2c1  solubility (water): < 1000 µg/mL
Cn1c(Cn2ccc(C(F)(F)F)c(Oc3cc(Cl)cc(C#N)c3)c2=O)n[nH]c1=O  Cmin reduction (human; dose not given, strong CYP3A4 induction, with: rifampin): 97%
CC1(C)S[C@@H]2[C@H](NC(=O)[C@H](N)c3ccccc3)C(=O)N2[C@H]1C(=O)O  MIC (Enterobacter cloacae; clinical isolate RKI 1026/14-1): > 16 µg/mL
CCN1CCN(Cc2ccc(Nc3ncc(F)c(-c4cc(F)c5nc(C)n(C(C)C)c5c4)n3)nc2)CC1  plasma protein binding (human plasma; 152 to 5066 ng/mL): 96 to 98%
COc1ccnc(C[S+]([O-])c2nc3ccc(OC(F)F)cc3[nH]2)c1OC (centres unmarked)  crossover pressure (supercritical CO2): 150 to 170 bar
CN(C)C(=O)c1cc2cnc(Nc3ccc(N4CCNCC4)cn3)nc2n1C1CCCC1  increase in Cmax (human; 400 mg single dose, with: ritonavir 100 mg twice daily for 14 days; baseline: compound alone): 1.7 fold
CN[C@H]1CC[C@@H](c2ccc(Cl)c(Cl)c2)c2ccccc21  increase in concentration (human patients; dose not given, with: esomeprazole; baseline: no esomeprazole): 38.5%
CCN1CCN(Cc2ccc(Nc3ncc(F)c(-c4cc(F)c5nc(C)n(C(C)C)c5c4)n3)nc2)CC1  incidence of venous thromboembolism (breast cancer patients; dose not given): 5%
C[Si]1(C)O[Si](C)(C)O[Si](C)(C)O[Si](C)(C)O[Si](C)(C)O[Si](C)(C)O1  slope B of log KOA vs 1/T (octanol/air): 3000 K
Cc1cc(C)c(CNC(=O)c2cc(Cl)c3c(c2C)O[C@@](C)([C@H]2CC[C@H](N(C)C)CC2)O3)c(=O)[nH]1  AUC(0-inf) (human; 200 mg): 10300 ng·h/mL
CC[C@H](C)[C@H](NC(=O)[C@H](Cc1ccccc1)NC(=O)[C@H](CCC(=O)O)NC(=O)[C@H](CCCCNC(=O)COCCOCCNC(=O)COCCOCCNC(=O)CC[C@H](NC(=O)CCCCCCCCCCCCCCCCC(=O)O)C(=O)O)NC(=O)[C@H](C)NC(=O)[C@H](C)NC(=O)[C@H](CCC(N)=O)NC(=O)CNC(=O)[C@H](CCC(=O)O)NC(=O)[C@H](CC(C)C)NC(=O)[C@H](Cc1ccc(O)cc1)NC(=O)[C@H](CO)NC(=O)[C@H](CO)NC(=O)[C@@H](NC(=O)[C@H](CC(=O)O)NC(=O)[C@H](CO)NC(=O)[C@@H](NC(=O)[C@H](Cc1ccccc1)NC(=O)[C@@H](NC(=O)CNC(=O)[C@H](CCC(=O)O)NC(=O)C(C)(C)NC(=O)[C@@H](N)Cc1cnc[nH]1)[C@@H](C)O)[C@@H](C)O)C(C)C)C(=O)N[C@@H](C)C(=O)N[C@@H](Cc1c[nH]c2ccccc12)C(=O)N[C@@H](CC(C)C)C(=O)N[C@H](C(=O)N[C@@H](CCCNC(=N)N)C(=O)NCC(=O)N[C@@H](CCCNC(=N)N)C(=O)NCC(=O)O)C(C)C  central volume of distribution (human, 85 kg reference; dose not given): 3.59 L
NC(=O)N1c2ccccc2C=Cc2ccccc21  solubility (water): < 1000 µg/mL
Nc1nc(=O)n([C@@H]2C=C[C@H](CO)O2)cc1F  oral bioavailability (human; 10 mg): 32%
CC[C@H]1OC(=O)[C@H](C)[C@@H](O[C@H]2C[C@@](C)(OC)[C@@H](O)[C@H](C)O2)[C@H](C)[C@@H](O[C@@H]2O[C@H](C)C[C@H](N(C)C)[C@H]2O)[C@](C)(OC)C[C@@H](C)C(=O)[C@H](C)[C@@H](O)[C@]1(C)O  free Cmax (human): 1.73 µM
CCOc1ccc(Cc2cc([C@@H]3O[C@H](CO)[C@@H](O)[C@H](O)[C@H]3O)ccc2Cl)cc1.C[C@H](O)CO.O  crossover pressure (solubility in supercritical CO2): ~17 MPa
OC[C@H]1O[C@@H](c2ccc(Cl)c(Cc3ccc(O[C@H]4CCOC4)cc3)c2)[C@H](O)[C@@H](O)[C@@H]1O  crossover pressure (supercritical CO2): 140 to 160 bar
CC/C(=C(\c1ccccc1)c1ccc(OCCN(C)C)cc1)c1ccccc1  free Cmax (human): 0.00646 µM
CNC(=O)c1c(C)oc2cc(Oc3ncnc4cc(OC)c(OC)cc34)ccc12  dose fraction metabolised to M11 (human; phase I mass balance): ~7.25%
C[C@@H]1CCO[C@H]2Cn3cc(C(=O)NCc4ccc(F)cc4F)c(=O)c(O)c3C(=O)N12  therapeutic serum level (human): 3 to 10 µM
COc1cc2ncnc(Nc3ccc(F)c(Cl)c3)c2cc1OCCCN1CCOCC1  solubility (FaSSIF; literature value): 88.7 µg/mL (≈ 198 µM)
CCN(CC)C(=S)SSC(=S)N(CC)CC  solubility (water): < 1000 µg/mL
Cn1c(=O)c2c(ncn2C)n(C)c1=O  Vd (human): 40 to 50 L
O=C(O)C(F)(F)F  pKa (potentiometry): 0.3
CCc1cc(/C(C)=N/OCc2ccc(C3CCCCC3)c(C(F)(F)F)c2)ccc1CN1CC(C(=O)O)C1  clearance (population PK; human, CYP2C9*2/*2): 2.5 L/h
COc1ccc(/C=C/C(=O)Nc2ccccc2C(=O)O)cc1OC  Cmax (plasma; concentration not given, total, steady state): 37 µM
CC(C)(C)NCC(O)COc1cccc2c1CC(O)C(O)C2 (centres unmarked)  diarrhoea incidence (human; concentration not given, clinical): 0%
Cc1cn([C@H]2C=C[C@@H](CO)O2)c(=O)[nH]c1=O  oral bioavailability (mouse; 25 mg/kg): 98%
Cc1nsc(-c2nnc3n2CCN(C(=O)c2ccc(F)cc2)[C@@H]3C)n1  CL/F (non-smoking women with VMS; oral, lowest reported, population PK): 10.8 L/h
Cc1nc(NC(=O)N2CCC[C@H]2C(N)=O)sc1-c1ccnc(C(C)(C)C(F)(F)F)c1  increase in AUC (human; oral, 300 mg single dose, with: meal, low fat, low calorie; baseline: fasted): 77%

For quick reference, copied from above:
Nc1cccc2c1C(=O)N(C1CCC(=O)NC1=O)C2=O (centres unmarked)  incidence of grade 3 anemia (relapsed refractory multiple myeloma patients; dose not given, grade up to 4): 17%
CC(C)NC(=O)COc1cccc(-c2nc(Nc3ccc4[nH]ncc4c3)c3ccccc3n2)c1  tmax delay (human; with food): 0.5 h
CNCc1cc(-c2ccccc2F)n(S(=O)(=O)c2cccnc2)c1  Ctrough (human, plasma; 30 mg multiple dose, observed clinical data): 3.65 ng/mL
Cc1cc(-c2ncc(CC(=O)Nc3ccc(-c4cnccn4)cn3)cc2C)ccn1  incidence of nausea and vomiting (human, advanced cancer; dose not given, phase I trial; baseline: subjects): 25 to 30%
